Measured values from different studies.
Protocols differ between the studies behind these lines.
T1: DNA aptamer; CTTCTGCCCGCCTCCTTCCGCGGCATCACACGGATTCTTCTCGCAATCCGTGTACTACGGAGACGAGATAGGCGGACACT
T2: DNA aptamer; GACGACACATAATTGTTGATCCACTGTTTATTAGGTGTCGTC
T3: DNA aptamer 25 nt core; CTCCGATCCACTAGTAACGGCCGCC
T4: DNA aptamer; CGGGGTGAAACGGGTCCCG
T5: DNA aptamer; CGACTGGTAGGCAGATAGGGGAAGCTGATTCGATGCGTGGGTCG
T6: DNA aptamer; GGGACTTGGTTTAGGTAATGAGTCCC
T7: DNA aptamer; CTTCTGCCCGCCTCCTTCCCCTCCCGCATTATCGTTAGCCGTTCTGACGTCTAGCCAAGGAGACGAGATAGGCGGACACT
T8: DNA aptamer; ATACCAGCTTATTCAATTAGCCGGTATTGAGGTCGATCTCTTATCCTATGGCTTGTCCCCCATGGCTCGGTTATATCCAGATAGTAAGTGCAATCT
T9: DNA aptamer; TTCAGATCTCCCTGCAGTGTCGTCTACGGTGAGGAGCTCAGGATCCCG
T10: DNA aptamer; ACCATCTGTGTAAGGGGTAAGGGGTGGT
T11: DNA aptamer; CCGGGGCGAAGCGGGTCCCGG
T12: DNA aptamer, 3' extension; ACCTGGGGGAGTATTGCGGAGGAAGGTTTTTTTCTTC

CC(C)=CCC[C@](C)(O[C@@H]1O[C@H](CO)[C@@H](O)[C@H](O)[C@H]1O)[C@H]1CC[C@]2(C)[C@@H]1[C@H](O)C[C@@H]1[C@@]3(C)CC[C@H](O)C(C)(C)[C@@H]3[C@@H](O[C@@H]3O[C@H](CO)[C@@H](O)[C@H](O)[C@H]3O[C@@H]3O[C@@H](C)[C@H](O)[C@@H](O)[C@H]3O)C[C@]12C
Kd (T1, DNA aptamer; fluorescence of eluted aptamer; pH 8.5, room temperature): 2.3 µM

Cn1cnc2c(ncn2[C@@H]2O[C@H](CO)[C@@H](O)[C@H]2O)c1=N
Kd (T2, DNA aptamer; competitor, ThT fluorescence displacement; apparent, added: ThT 16 µM): 1.9 µM

CC(=O)N[C@H]1C(O)O[C@H](CO)[C@H](O)[C@@H]1O (stereo partly shown)
Kd (T3, DNA aptamer 25 nt core; SPR): 0.0583 µM

C[C@@H]1Cc2c(Cl)cc(C(=O)N[C@@H](Cc3ccccc3)C(=O)O)c(O)c2C(=O)O1
Kd (T4, DNA aptamer; ITC; pH 7.4, 23 °C, reverse titration; single-site fit, added: 10 mM MgCl2): 5.5 µM

NCCc1c[nH]c2ccc(O)cc12
Kd (T5, DNA aptamer; single-molecule carbon nanotube FET; pH 7.0): 0.0316 µM

NC[C@H]1O[C@H](O[C@H]2[C@H](O)[C@@H](O[C@H]3O[C@H](CO)[C@@H](O)[C@H](N)[C@H]3O)[C@H](N)C[C@@H]2N)[C@H](O)[C@@H](O)[C@@H]1O
Kd (T6, DNA aptamer; square-wave voltammetry; apparent, surface-bound aptamer): 1780 µM

CC(C)=CCC[C@](C)(O[C@@H]1O[C@H](CO[C@@H]2O[C@H](CO)[C@@H](O)[C@H](O)[C@H]2O)[C@@H](O)[C@H](O)[C@H]1O)[C@H]1CC[C@]2(C)[C@@H]1[C@H](O)C[C@@H]1[C@@]3(C)CC[C@H](O[C@@H]4O[C@H](CO)[C@@H](O)[C@H](O)[C@H]4O[C@@H]4O[C@H](CO)[C@@H](O)[C@H](O)[C@H]4O)C(C)(C)[C@@H]3CC[C@]12C
Kd (T7, DNA aptamer; fluorescence of eluted aptamer; pH 8.5, room temperature): 4.9 µM

NC[C@H]1O[C@H](O[C@H]2[C@H](O)[C@@H](O[C@H]3O[C@H](CO)[C@@H](O)[C@H](N)[C@H]3O)[C@H](N)C[C@@H]2N)[C@H](O)[C@@H](O)[C@@H]1O
Kd (T8, DNA aptamer; MST): 260 µM

O=[N+]([O-])N=C1NCCN1Cc1ccc(Cl)nc1
Kd (T9, DNA aptamer; differential pulse voltammetry; 30 min, pH 7.5, Na+ 150 mM, Mg2+ 2 mM): 0.0128 µM

CC(=O)[C@]1(O)Cc2c(O)c3c(c(O)c2[C@@H](O[C@H]2C[C@H](N)[C@H](O)[C@H](C)O2)C1)C(=O)c1ccccc1C3=O
Kd (T10, DNA aptamer; SWV; pH 7.4, apparent): 1.95 µM

C[C@@H]1Cc2ccc(C(=O)N[C@@H](Cc3ccccc3)C(=O)O)c(O)c2C(=O)O1
Kd (T11, DNA aptamer; ITC; pH 7.4, 23 °C, reverse titration; single-site fit, added: 10 mM MgCl2): 59.9 µM

COc1cccc2c1C(=O)c1c(O)c3c(c(O)c1C2=O)C[C@@](O)(C(=O)CO)C[C@@H]3O[C@H]1C[C@H](N)[C@H](O)[C@H](C)O1
Kd (T10, DNA aptamer; SWV; pH 7.4, apparent): 1.51 µM

Nc1ncnc2c1ncn2[C@@H]1O[C@H](COP(=O)(O)OP(=O)(O)OP(=O)(O)O)[C@@H](O)[C@H]1O
Kd (T12, DNA aptamer, 3' extension; square wave voltammetry; apparent, electrochemical aptamer sensor, assumed saturation): 134 µM

Some of these lines once more:
Nc1ncnc2c1ncn2[C@@H]1O[C@H](COP(=O)(O)OP(=O)(O)OP(=O)(O)O)[C@@H](O)[C@H]1O
Kd (T12, DNA aptamer, 3' extension; square wave voltammetry; apparent, electrochemical aptamer sensor, assumed saturation): 134 µM
